Measured values gathered from unrelated publications.
Parts stem from different laboratories: compare values within a part only. Positions count from the first letter of the parent shown.

Study 1
Substance: PhoQ, residues 284 288 289 292 302 303 NLMGRA
Method: Sort-seq
Measured: YFP reporter
Sample: E. coli
Setting: PhoQ-PhoP variant library
Together with: 10 µM Mg2+
Reference: high Mg2+ state
Reading: higher = stronger signaling
target | fold induction
PhoP, residues 12 14 15 18 19 LHTVL (Escherichia coli, UniProt P23836) | 56.1
PhoP, residues 12 14 15 18 19 NQCAL (Escherichia coli, UniProt P23836) | 15.7
PhoP, residues 12 14 15 18 19 TQAML (Escherichia coli, UniProt P23836) | 21.1

Study 2
Target: ABI1, truncated, D143A, DHFR fusion (Arabidopsis thaliana)
Method: DHFR PCA, deep sequencing
Sample: yeast
Setting: methotrexate growth selection, single substitutions
Together with: (+)-ABA 200 µM
Reference: wild-type fitted maximum
Reading: higher = stronger binding
Starting sequence: PYL1, truncated, DHFR fusion (Arabidopsis thaliana); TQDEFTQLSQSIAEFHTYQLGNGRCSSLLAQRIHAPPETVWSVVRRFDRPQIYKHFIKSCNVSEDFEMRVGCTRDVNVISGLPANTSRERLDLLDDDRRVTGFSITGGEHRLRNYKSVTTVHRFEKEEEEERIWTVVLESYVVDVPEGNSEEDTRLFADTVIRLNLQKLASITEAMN; partner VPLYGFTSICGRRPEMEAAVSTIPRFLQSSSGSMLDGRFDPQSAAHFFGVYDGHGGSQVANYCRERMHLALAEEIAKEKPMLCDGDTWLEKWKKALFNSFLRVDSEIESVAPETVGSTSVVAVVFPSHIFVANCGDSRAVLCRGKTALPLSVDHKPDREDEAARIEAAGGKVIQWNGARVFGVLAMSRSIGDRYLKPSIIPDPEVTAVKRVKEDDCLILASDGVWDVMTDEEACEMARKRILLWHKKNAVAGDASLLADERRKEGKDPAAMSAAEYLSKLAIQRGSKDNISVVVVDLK
Change | relative binding score [%]
I52C | 99.4
R45L | 1.6
V76D | -7.68
D159K | 45.7
H55I | 104
E64K | 104
G107S | 91.8

Study 3
Target: CCNA2, cyclin fold, Cln2 fusion (human)
Method: yeast growth competition, sequencing
Sample: yeast
Setting: strong parent motif
Reference: not given
Reading: higher = stronger binding
Starting sequence: CUX1 docking peptide (human); SRIRRELFIEEIQ; partner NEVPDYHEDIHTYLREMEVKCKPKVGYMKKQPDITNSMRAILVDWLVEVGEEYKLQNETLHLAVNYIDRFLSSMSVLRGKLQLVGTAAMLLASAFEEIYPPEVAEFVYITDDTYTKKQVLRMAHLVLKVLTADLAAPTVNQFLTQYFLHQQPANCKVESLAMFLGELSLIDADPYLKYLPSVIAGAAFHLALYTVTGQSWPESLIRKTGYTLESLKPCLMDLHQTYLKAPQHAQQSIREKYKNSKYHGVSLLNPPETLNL
Change | normalised enrichment score
SRIRKELFIEEIQ [R5K] | 3.04
SRIRRELFIEEAQ [I12A] | 3.52
SRIARELFIEEIQ [R4A] | 2.44
SRARRELFIEEIQ [I3A] | 5.71
SRIRRALFIEEIQ [E6A] | 4.64
SRIRRELFIEEIA [Q13A] | 4.6
SAIRRELFIEEIQ [R2A] | 2.29

Study 4
Target: Sal-like protein 4, full length isoform A (SALL4, Homo sapiens, UniProt Q9UJQ4, residues 1-1053)
Chain of UniProt Q9UJQ4 (whole entry, looked up): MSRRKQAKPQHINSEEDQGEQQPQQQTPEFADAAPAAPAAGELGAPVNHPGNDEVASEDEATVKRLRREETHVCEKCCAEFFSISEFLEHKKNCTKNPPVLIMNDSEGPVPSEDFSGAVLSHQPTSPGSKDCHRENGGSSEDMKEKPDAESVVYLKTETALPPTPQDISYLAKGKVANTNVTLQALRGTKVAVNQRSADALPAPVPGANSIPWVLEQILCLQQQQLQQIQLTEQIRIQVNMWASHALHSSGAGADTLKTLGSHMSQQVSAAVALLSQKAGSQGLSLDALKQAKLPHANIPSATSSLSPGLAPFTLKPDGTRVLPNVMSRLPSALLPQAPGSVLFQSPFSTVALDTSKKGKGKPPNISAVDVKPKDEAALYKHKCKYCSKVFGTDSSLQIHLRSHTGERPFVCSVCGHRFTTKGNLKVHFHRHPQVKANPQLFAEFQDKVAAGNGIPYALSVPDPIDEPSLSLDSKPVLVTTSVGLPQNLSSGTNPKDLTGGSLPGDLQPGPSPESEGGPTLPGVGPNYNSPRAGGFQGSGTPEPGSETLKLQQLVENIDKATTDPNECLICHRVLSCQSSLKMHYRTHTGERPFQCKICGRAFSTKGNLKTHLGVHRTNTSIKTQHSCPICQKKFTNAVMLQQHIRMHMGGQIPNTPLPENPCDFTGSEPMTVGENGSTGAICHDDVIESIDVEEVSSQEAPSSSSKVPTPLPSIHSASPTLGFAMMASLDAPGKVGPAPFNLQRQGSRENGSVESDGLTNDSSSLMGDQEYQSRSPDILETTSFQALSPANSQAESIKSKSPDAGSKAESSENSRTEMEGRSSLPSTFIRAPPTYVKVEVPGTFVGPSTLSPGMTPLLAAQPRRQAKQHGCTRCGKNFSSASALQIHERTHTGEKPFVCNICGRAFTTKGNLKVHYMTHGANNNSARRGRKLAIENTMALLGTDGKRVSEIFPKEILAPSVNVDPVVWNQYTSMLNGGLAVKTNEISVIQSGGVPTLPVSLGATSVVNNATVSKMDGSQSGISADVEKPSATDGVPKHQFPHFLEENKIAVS
Method: universal PBM
Form: double-stranded DNA, one strand shown
Sample: in vitro
Concentration: 600 nM
Setting: 8-mer, flanks averaged, mean of replicates
Reading: higher = stronger binding
Strand | E-score
CAGCGGGG | -0.291
AAATGTCT | 0.205
ACTGCTGA | -0.111
ACCTTTAT | 0.168
CACAATGC | -0.0802
CCCATGCC | -0.339
CCATAAGG | 0.0654
CTCGTAGC | -0.0506
ACGCGAGG | -0.203
ACACTCCC | -0.151
CCCGTGCG | -0.348

Excerpt of the above (study 2):
Change | relative binding score [%]
D159K | 45.7
H55I | 104
E64K | 104
G107S | 91.8
